Measured values from different studies.
Lines come from different studies, so protocols differ. Numbers after ± are the reported error.
BCHE: Cholinesterase (BCHE, Homo sapiens, UniProt P06276)
cyp121: Mycocyclosin synthase (cyp121, Mycobacterium tuberculosis, UniProt P9WPP7)
inhA: Enoyl-[acyl-carrier-protein] reductase [NADH] (inhA, Mycobacterium tuberculosis, UniProt P9WGR1)
CHRNA7: Neuronal acetylcholine receptor subunit alpha-7 (CHRNA7, Homo sapiens, UniProt P36544)

Sequences of proteins named here, by UniProt entry; tags and fusion partners are left off. Residues count along the entry.
UniProt P06276, whole entry, looked up: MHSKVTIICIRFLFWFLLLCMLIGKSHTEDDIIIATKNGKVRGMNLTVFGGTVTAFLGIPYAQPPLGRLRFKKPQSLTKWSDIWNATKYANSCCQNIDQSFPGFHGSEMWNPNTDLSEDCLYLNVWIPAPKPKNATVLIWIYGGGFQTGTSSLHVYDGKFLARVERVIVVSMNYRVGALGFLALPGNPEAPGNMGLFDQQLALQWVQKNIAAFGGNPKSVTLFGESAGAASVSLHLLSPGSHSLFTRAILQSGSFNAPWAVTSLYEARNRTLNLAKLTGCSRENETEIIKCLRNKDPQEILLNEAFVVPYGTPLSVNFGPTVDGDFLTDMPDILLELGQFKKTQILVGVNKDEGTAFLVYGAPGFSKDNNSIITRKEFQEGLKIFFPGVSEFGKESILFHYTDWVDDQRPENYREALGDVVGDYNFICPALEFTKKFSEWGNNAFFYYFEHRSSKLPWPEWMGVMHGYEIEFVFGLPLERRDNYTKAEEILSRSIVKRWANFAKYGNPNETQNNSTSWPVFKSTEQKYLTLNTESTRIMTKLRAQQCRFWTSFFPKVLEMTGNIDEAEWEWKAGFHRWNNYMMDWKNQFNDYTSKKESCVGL
UniProt P9WPP7, whole entry: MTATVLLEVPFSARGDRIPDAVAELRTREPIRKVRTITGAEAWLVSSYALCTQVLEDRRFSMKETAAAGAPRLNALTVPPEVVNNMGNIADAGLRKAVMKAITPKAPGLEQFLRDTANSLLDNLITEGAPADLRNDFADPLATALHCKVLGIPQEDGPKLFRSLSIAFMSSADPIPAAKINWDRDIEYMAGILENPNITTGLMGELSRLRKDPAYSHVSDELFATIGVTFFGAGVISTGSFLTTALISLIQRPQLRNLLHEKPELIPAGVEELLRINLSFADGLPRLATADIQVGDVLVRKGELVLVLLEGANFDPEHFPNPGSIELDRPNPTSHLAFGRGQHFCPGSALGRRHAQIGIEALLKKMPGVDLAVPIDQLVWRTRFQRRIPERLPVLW
UniProt P9WGR1, whole entry: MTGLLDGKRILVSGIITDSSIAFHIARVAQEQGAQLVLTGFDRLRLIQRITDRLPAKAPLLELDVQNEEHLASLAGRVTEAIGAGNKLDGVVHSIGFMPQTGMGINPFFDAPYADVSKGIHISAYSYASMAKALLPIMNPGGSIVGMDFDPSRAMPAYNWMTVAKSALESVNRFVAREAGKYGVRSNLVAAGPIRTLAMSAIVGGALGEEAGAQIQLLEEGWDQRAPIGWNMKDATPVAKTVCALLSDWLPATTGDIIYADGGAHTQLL
UniProt P36544, 23-502 limits assumed: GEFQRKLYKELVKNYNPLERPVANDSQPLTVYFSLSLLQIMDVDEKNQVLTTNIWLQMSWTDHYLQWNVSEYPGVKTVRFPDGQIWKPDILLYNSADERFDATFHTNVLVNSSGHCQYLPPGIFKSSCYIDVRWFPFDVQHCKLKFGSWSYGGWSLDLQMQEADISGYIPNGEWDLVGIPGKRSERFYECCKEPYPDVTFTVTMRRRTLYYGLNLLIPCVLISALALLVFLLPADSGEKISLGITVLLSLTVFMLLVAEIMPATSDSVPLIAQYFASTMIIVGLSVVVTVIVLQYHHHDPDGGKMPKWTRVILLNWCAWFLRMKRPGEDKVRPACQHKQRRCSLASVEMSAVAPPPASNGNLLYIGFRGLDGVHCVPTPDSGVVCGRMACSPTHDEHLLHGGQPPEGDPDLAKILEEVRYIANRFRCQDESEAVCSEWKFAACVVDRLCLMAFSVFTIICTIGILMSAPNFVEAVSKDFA
UniProt Q5M848, whole entry: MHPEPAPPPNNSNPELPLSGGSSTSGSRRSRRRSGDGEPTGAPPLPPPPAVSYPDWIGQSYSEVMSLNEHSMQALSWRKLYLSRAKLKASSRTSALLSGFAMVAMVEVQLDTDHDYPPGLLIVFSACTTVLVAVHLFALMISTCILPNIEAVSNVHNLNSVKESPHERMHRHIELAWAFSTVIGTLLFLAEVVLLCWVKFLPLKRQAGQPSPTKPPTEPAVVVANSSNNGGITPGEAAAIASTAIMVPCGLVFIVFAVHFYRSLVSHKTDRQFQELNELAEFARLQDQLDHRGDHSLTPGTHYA
UniProt P9WFX1, whole entry: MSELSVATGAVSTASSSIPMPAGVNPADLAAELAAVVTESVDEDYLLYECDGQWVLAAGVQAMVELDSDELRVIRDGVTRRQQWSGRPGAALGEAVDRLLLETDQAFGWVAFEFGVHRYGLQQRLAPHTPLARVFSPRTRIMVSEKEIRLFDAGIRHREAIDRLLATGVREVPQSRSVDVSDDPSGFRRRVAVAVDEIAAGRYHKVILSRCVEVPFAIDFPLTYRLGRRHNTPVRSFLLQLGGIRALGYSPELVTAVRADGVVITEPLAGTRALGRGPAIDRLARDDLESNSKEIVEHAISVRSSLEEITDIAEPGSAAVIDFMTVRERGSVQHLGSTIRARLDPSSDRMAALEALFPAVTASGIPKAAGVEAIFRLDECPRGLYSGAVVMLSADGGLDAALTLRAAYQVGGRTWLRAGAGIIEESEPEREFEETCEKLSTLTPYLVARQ
UniProt A0A075M4H4, 1-231 limits assumed: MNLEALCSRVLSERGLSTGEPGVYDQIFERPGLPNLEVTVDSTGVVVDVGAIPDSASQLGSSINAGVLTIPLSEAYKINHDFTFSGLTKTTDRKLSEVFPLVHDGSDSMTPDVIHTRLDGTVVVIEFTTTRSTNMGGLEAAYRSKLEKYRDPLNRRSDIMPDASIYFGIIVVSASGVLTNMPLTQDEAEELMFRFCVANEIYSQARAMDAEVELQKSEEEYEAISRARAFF
UniProt Q9NUW8, whole entry: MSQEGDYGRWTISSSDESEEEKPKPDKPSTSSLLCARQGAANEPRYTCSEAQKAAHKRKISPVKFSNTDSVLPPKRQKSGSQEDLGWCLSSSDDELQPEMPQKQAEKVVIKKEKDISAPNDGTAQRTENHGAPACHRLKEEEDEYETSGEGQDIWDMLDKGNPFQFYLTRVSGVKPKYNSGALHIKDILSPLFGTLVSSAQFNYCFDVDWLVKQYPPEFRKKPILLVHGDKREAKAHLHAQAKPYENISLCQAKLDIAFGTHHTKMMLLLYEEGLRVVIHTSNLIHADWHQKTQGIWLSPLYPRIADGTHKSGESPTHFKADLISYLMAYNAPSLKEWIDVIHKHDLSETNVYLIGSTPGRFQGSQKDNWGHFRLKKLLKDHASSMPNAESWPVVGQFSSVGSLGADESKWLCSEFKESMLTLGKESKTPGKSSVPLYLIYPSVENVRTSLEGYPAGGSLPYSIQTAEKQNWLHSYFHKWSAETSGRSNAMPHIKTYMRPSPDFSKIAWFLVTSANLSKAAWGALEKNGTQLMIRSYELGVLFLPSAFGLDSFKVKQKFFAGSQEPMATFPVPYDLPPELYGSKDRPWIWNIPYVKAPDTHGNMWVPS
UniProt O42275, whole entry, looked up: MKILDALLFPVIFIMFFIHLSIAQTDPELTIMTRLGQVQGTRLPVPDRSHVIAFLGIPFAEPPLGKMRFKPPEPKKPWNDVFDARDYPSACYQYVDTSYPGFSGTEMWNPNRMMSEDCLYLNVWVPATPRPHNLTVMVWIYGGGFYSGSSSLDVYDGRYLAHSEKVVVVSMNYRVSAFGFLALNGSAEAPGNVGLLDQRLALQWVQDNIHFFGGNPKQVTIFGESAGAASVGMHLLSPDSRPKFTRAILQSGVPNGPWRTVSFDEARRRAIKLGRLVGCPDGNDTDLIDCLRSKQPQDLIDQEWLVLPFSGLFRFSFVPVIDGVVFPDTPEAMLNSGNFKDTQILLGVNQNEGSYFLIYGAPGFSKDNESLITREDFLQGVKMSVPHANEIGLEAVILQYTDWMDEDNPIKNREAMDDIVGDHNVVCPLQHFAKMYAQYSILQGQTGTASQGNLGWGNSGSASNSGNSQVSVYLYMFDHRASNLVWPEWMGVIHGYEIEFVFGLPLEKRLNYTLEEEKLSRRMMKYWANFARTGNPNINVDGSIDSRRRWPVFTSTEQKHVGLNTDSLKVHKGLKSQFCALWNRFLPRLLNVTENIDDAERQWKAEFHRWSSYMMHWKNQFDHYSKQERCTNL
UniProt O33336, whole entry: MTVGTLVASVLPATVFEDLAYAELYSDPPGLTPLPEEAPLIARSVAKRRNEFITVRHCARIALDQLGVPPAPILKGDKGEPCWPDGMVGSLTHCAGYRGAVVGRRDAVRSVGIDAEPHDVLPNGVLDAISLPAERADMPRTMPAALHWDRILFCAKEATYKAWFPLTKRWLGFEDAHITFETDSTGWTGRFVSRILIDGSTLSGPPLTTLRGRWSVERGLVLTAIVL

SMILES	target	assay	test system	conditions	quantity	value
c1ccc2c[n+](CCCCCCCC[n+]3ccc4ccccc4c3)ccc2c1	BCHE	enzyme activity, inhibitor			IC50	0.4 ± 0.06 µM
Fc1ccc(-c2csc(Cn3ccnc3)c2)cc1F	cyp121	binding			Kd	5.3 ± 1.1 µM
Oc1cc(-c2nn[nH]n2)ccc1Oc1ccc(Cl)cc1Cl	inhA	inhibitor			IC50	> 10 µM
C[C@@H]1NC(=O)[C@H](CCCNC(=N)N)NC(=O)[C@H](CCCNC(=N)N)NC(=O)[C@@H]2CCCN2C(=O)[C@H](CO)NC(=O)[C@@H]2CSSC[C@H](NC(=O)CN)C(=O)N[C@@H](CSSC[C@@H](C(N)=O)NC(=O)[C@H](CO)NC(=O)[C@H](CCCNC(=N)N)NC1=O)C(=O)N[C@@H](CO)C(=O)N[C@@H](Cc1c[nH]cn1)C(=O)N1CCC[C@H]1C(=O)N[C@@H](C)C(=O)N2	CHRNA7	ion current, antagonist, two-electrode voltage clamp	Xenopus oocytes	holding -70 mV, together with: 100 µM acetylcholine	IC50	2.12 µM
O=C(Nc1c(F)cncc1F)c1nn(Cc2ccc(Cl)cc2Cl)c2ccccc12	Calcium release-activated calcium channel protein 1, with STIM1 (Rattus norvegicus, UniProt Q5M848)	Ca2+ influx, inhibitor	RBL-2H3	together with: thapsigargin 1 µM	IC50	> 30 µM
Oc1cc(-c2ccccc2)ccc1Oc1ccc(Cl)cc1Cl	inhA	inhibitor			IC50	> 10 µM
O=C(O)c1ccc(-c2ccc(C(F)(F)F)cc2Cl)o1	mbtI (Mycobacterium tuberculosis, UniProt P9WFX1)	enzyme activity, inhibitor			IC50	28.5 ± 2.6 µM
O=C(O)C(=O)CC(=O)C1(Cc2ccc(Cl)cc2)CCN(Cc2ccccc2)CC1	RNA-dependent RNA polymerase, endonuclease domain (Heartland virus, UniProt A0A075M4H4)	endonuclease activity			IC50	3.3 ± 0.4 µM
CC(C)(C)c1cc[n+](CCCCCCCC[n+]2ccc(C(C)(C)C)cc2)cc1	BCHE	enzyme activity, inhibitor			IC50	0.02 ± 0.003 µM
NC(=O)c1ccc(Oc2ccc(Cl)cc2Cl)c(O)c1	inhA	inhibitor			IC50	> 10 µM
C[C@@H]1NC(=O)[C@H](Cc2ccccc2)NC(=O)[C@H](CCCNC(=N)N)NC(=O)[C@@H]2CCCN2C(=O)[C@H](CC(=O)O)NC(=O)[C@H](CO)NC(=O)[C@@H](NC(=O)[C@H](Cc2cnc[nH]2)NC(=O)CN)CSSC[C@@H](C(N)=O)NC(=O)[C@H](CCCNC(=N)N)NC(=O)[C@H](Cc2c[nH]c3ccccc23)NC1=O	CHRNA7	ACh-evoked current, inhibitor, two-electrode voltage clamp	Xenopus laevis oocytes	together with: 100 µM ACh	IC50	9.59 ± 0.62 µM
N#Cc1ccc(-c2ccc(COCCc3ccc(-c4nc5cc(-c6ccccc6)ccn5c4Nc4ccc(C(=O)O)cc4)cc3)cc2)nc1	TDP1 (Homo sapiens, UniProt Q9NUW8)	enzyme activity, inhibitor			IC50	2.75 ± 0.25 µM
C=CC(c1ccc(-c2ccc3c(c2)OCO3)cc1)n1ccnc1 (single isomer, unassigned)	cyp121			enantiomer E1	Kd	9.6 µM
CCCCCCCCN(O)C(=O)Cc1ccc(O)c(OC)c1	ADAM17 (Oryctolagus cuniculus, UniProt G1SZC8)	enzyme activity, inhibitor	Oryctolagus cuniculus, treated cornea extract		IC50	0.52 nmol
C(=N\N1CCN(Cc2cccc3ccccc23)CC1)/c1ccccc1	ache (Electrophorus electricus, UniProt O42275)	enzyme activity, inhibitor, Ellman		10 min preincubation, pH 8, 23 °C	IC50	985 ± 309 µM
Oc1cc(-c2ccc(F)cc2)ccc1Oc1ccc(Cl)cc1Cl	inhA	inhibitor			IC50	> 10 µM
O=c1c2cc(CO)ccc2[nH]c(=S)n1Cc1cccnc1	4'-phosphopantetheinyl transferase PptT (Mycobacterium tuberculosis, UniProt O33336)	enzyme activity, inhibitor, fluorescence polarization			IC50	0.36 µM
CCC(C)Cc1ccc(Oc2ccc(Cl)cc2Cl)c(O)c1 (stereo not shown)	inhA	inhibitor			IC50	0.13 ± 0.056 µM
c1cc[n+](CCCCCCCCCC[n+]2ccccc2)cc1	BCHE	enzyme activity, inhibitor			IC50	5 ± 0.8 µM

For quick reference, copied from above:
SMILES	target	assay	test system	conditions	quantity	value
Oc1cc(-c2nn[nH]n2)ccc1Oc1ccc(Cl)cc1Cl	inhA	inhibitor			IC50	> 10 µM
C[C@@H]1NC(=O)[C@H](CCCNC(=N)N)NC(=O)[C@H](CCCNC(=N)N)NC(=O)[C@@H]2CCCN2C(=O)[C@H](CO)NC(=O)[C@@H]2CSSC[C@H](NC(=O)CN)C(=O)N[C@@H](CSSC[C@@H](C(N)=O)NC(=O)[C@H](CO)NC(=O)[C@H](CCCNC(=N)N)NC1=O)C(=O)N[C@@H](CO)C(=O)N[C@@H](Cc1c[nH]cn1)C(=O)N1CCC[C@H]1C(=O)N[C@@H](C)C(=O)N2	CHRNA7	ion current, antagonist, two-electrode voltage clamp	Xenopus oocytes	holding -70 mV, together with: 100 µM acetylcholine	IC50	2.12 µM
O=C(Nc1c(F)cncc1F)c1nn(Cc2ccc(Cl)cc2Cl)c2ccccc12	Calcium release-activated calcium channel protein 1, with STIM1 (Rattus norvegicus, UniProt Q5M848)	Ca2+ influx, inhibitor	RBL-2H3	together with: thapsigargin 1 µM	IC50	> 30 µM
